Measurements pooled from the literature.
Every numbered part comes from another study and shows a few of its results, in no order.

Sample 1
Target: Interferon regulatory factor 7, full length, phosphomimetic (IRF7, Homo sapiens, UniProt Q92985, residues 1-503, S471D/S472D/S475D/S476D/S477D/S483D/S484D/S487D)
Technique: protein-binding microarray
Form: double-stranded DNA, one strand shown
Matrix: in vitro
Concentration: 2200 nM top
Notes: 60-bp whole probe
Together with: salmon DNA 0.4 mg/ml
Baseline: random background probes
Reading: higher = stronger binding
Measurement: fitted relative affinity
All sequences stand within: GCCTAGCAC … GTCTTGATTCGCTTGACGCTGCTG
Residues (chain): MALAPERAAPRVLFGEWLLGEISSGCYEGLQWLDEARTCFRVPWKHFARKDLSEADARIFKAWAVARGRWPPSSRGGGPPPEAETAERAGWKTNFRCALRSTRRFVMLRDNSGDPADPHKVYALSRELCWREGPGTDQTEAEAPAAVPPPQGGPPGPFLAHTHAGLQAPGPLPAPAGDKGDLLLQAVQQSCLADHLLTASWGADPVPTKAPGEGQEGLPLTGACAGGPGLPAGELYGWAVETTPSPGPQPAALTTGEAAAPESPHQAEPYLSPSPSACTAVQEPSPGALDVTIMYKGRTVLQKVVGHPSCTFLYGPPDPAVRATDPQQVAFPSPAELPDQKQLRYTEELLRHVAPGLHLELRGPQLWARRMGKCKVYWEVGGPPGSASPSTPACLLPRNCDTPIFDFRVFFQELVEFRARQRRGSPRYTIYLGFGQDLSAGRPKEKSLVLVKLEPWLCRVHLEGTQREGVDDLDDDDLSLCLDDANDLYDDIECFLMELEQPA
CCCAATTCTCTTTTCACTTTGTGCTAG: 3.4 z-score
GTCGAACTGGGGTTTCGAGACGTGCTA: 1.71 z-score
CACGGACTGGGTATCGGGACGTGCTAG: -0.745 z-score
AGGCCCTTTGCTTTCCTGATGTGCTAG: 1.34 z-score
GACGGTCTCGGTCGCGGGACGTGCTAG: -0.477 z-score

Sample 2
Target: Histone acetyltransferase KAT6A, winged helix 1, GST fusion (KAT6A, Homo sapiens, UniProt Q92794, residues 1-85)
Technique: protein binding microarray
Form: double-stranded DNA, one strand shown
Matrix: in vitro
Concentration: not given
Notes: 8-mer, flanks averaged, mean of 2 arrays, mostly near background
Baseline: not given
Reading: higher = stronger binding
Measurement: E-score
Target sequence (chain): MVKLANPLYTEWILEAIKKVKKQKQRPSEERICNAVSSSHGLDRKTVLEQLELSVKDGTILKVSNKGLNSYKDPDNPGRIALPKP
AGTATCTC: -0.0491
AACGTATC: -0.121
AGCCATTC: -0.216
GAACCATC: -0.0536

Sample 3
Target: Protein max, full length (MAX, Homo sapiens, UniProt P61244-2, residues 1-151)
Technique: protein-binding microarray
Form: double-stranded DNA, one strand shown
Matrix: in vitro
Concentration: not given
Notes: k-mer, scored over probes, only values ≥0.25
Reading: higher = stronger binding
Measurement: E-score
AGCCATGC: 0.397
CATGATTC: 0.264
CATGACAA: 0.267
CGCACGCA: 0.365

Other studies, line by line
PhoQ, residues 284 288 289 292 302 303 TLSLKA  fold induction (PhoP, residues 12 14 15 18 19 AQALL (Escherichia coli, UniProt P23836); Sort-seq, measured: YFP reporter; E. coli; PhoQ-PhoP variant library, together with: 10 µM Mg2+; baseline: high Mg2+ state, higher = stronger signaling): 2.15

For quick reference, copied from above (sample 2):
AGCCATTC: -0.216
GAACCATC: -0.0536
